Published values pooled from the literature.
Parts stem from different laboratories: compare values within a part only.

Set 1 — technique: protein binding microarray; form: double-stranded DNA, one strand shown; medium: in vitro; tested at: not given; relative to: not given; direction: higher = stronger binding; endpoint: E-score
Target: Histone acetyltransferase KAT6A, both winged helices, GST fusion (KAT6A, Homo sapiens, UniProt Q92794, residues 1-181)
Setting: 8-mer, flanks averaged, mean of 2 arrays, mostly near background
Construct (chain): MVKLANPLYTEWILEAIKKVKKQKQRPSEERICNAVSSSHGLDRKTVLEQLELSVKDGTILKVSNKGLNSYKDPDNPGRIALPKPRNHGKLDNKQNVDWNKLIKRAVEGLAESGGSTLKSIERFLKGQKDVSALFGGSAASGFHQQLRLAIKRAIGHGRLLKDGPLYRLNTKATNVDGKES
AACCACGG: 0.135
GTACGTGA: -0.0448
CCGCGCTC: 0.317
ACGAGCTA: -0.0734
ATATTCAG: 0.0563
CGAAACCG: 0.16
CGCACGAC: 0.132
AACAAATA: -0.022
CCTCCGTA: 0.103
ATCCTCGC: 0.00443
AAGTAAAT: -0.124
AGTATAGC: -0.0642
TGCAGCCA: -0.0777
CACAGCTC: -0.157
GTGGTACA: -0.11
AATACCCG: 0.175
AATGCGGC: 0.232
ATACGCTA: 0.0721
GGGTGTAC: 0.109
ATTGACTA: -0.0799
CCAGTGGG: -0.142

Set 2 — technique: aptamer microarray, sandwich; form: DNA with 2'F-ANA; medium: in vitro; tested at: 200 nM; together with: Cy3 exosite-II aptamer, 400 nM; direction: higher = stronger binding; endpoint: mean fluorescence intensity; strand: GGTTGGTGTGGTTGG
Target: Prothrombin, mature alpha-thrombin (F2, Homo sapiens, UniProt P00734)
Setting: whole 15-mer aptamer, many near background
2'F-ANA at 2 5 8 9 10 11 12 13: 73.8 a.u.
2'F-ANA at 1 3 5 8 9 10 11 12 13 14 15: 95.1 a.u.
2'F-ANA at 1 2 3 5 6 12 13 14 15: 49.3 a.u.
2'F-ANA at 1 2 5 8 12 13: 84.4 a.u.
2'F-ANA at 3 4 5 7 8 9 11 13 14: 51 a.u.
2'F-ANA at 3 4 5 7 10 11 15: 79 a.u.
2'F-ANA at 1 2 4 8 10 11 12 14: 49 a.u.
2'F-ANA at 1 2 3 6 7 9 11 12 13 14 15: 74.7 a.u.
2'F-ANA at 1 2 3 4 5 7 11 13 14 15: 48.9 a.u.
2'F-ANA at 2 5 8 9 10 11 12 14: 73.4 a.u.
2'F-ANA at 5 6 7 8 13 14: 41.9 a.u.
2'F-ANA at 2 4 5 6 7 8 9 12 14 15: 51.8 a.u.
2'F-ANA at 2 3 4 6 7 9 11 13 14: 173 a.u.
2'F-ANA at 1 4 6 8 9 11 12 15: 217 a.u.
2'F-ANA at 2 4 5 6 12 13: 117 a.u.
2'F-ANA at 1 3 5 8 9 13 14: 42.2 a.u.
2'F-ANA at 1 3 4 7 8 9 10 12 14 15: 55.1 a.u.
2'F-ANA at 2 3 5 7 8 9 10 11 12: 77.7 a.u.

Set 3 — technique: RNA Bind-n-Seq; form: RNA; medium: in vitro; tested at: 365 nM; relative to: no-protein control; direction: higher = stronger binding; endpoint: RBNS enrichment (R)
Target: RNA binding protein fox-1 homolog 2, RRM domain, GST-SBP tag (RBFOX2, Homo sapiens, UniProt O43251-10, residues 100-194)
Setting: natural RNA segment, single round, ends assumed
Constant ends, left off below: GGGAGUUCUACAGUCCGACGAUC … UGGAAUUCUCGGGUGCCAA
UCUAGCAUUUACAAAACUCAGAUCUCAAAGCUCUGCUUGUAUUUGUGAUAUUUCAUUUGCUUAACUGUAAACCAUUUCAAGGUACUAACUUUUAAAUCUGUAUGUAAAAU: 0.607
AGGCACACCCACGCUGGGACAGGGACUUCUAACCGACUGGCCUGCUGCUAAUGCAGGACAGUCUACUUUUCAGUUAAUUCAGAGCCCUUAGCUUGUGUUAUCAAAUGUUC: 0.5
GUCAGUUUUGAGUAUCAUUGGCCCUUUCCAGCACAUGGGUGAGAAAACAGGCCACGACUUGUCACUCAGCACUAACCCCCAGUUCUUGAACAGCCUCCUCCAGCCCUGCU: 0.641
CCAGGUGGCUUUAGGGUCCUAAGGAGUGGAGAAGGAUGGCACUGGGGAGGUCUGGAUGGAUCUGUGUAGGAGUUCCCUGUAGAUAAAUUACUGAUCCCCCAUCUACUAUC: 1.2
GUUUCAUAAGCCUGUCUAGGUGUGGCAGGUUUUGUGUGGUACACUGAUGUUUACCAUAAGCAGGUACAAGCUUCAUGAACCGUUCUUAAUGAACUAUAAUUGAAUAGAUA: 0.434
CCAAAGAAUGGGGGUGGGAGCGCCAAGGGGCAGAGACUCUCCUUGACCCUCUCCCUAAGGUUGGAUCAGGGAACUGGGUAAGACCUGCAGAAGGUUUCUCUGAGUCACUC: 0.453
ACGUUUGCAGAAACUGCCCCUCCCCUCAUUGAGGGUCACUGCUCAAGAGUGCAGGAGUGGACUCUCCACUGAUGGGUCUCCCUCCCCAUCCUGGUUUCCACCCCGGGCUG: 0.54
CUUGUACUGGGACCAAAGUAAAAAUCCAAGCACAUUCCCCUUGCAGUUAGGGGAGGCCCUACUGCCUUCUCAAAGCAGAGAGGCAGCUUAUCAAACUCAGCCCAAAACUC: 0.503

Set 4 — technique: RNA Bind-n-Seq; form: RNA; medium: in vitro; tested at: 100 nM; relative to: input RNA pool; direction: higher = stronger binding; endpoint: bound/input enrichment
Target: RING finger protein unkempt homolog, zinc fingers 1-6, SBP tag (UNK, Homo sapiens, UniProt Q9C0B0, residues 30-357)
Sequence of UniProt Q9C0B0 (30-357, looked up): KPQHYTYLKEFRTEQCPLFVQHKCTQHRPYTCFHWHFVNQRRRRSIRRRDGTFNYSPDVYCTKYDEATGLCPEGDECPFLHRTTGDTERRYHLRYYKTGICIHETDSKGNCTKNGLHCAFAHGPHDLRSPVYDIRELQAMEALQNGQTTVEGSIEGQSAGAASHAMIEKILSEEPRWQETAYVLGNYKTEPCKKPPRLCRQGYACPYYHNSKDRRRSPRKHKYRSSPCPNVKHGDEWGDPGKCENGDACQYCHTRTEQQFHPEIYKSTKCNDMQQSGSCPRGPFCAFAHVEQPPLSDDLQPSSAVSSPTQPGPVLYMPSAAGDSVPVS
Setting: RNA with constant flanks, vertebrate orthologous sites, ends assumed
Constant ends, left off below: GGGAGUUCUACAGUCCGACGAUC … CAACAGAGGAUUGAGCAUCA
CUAGUCUUCCACUUAGGGUUGGCCUCAAACCUAUAGGACUUAUGACAAAUGUAUAUCUACUUAGGUUGAGUUUAAUAUUUUUUUAUUAGCCUGUAAAUAAAGAUUGCAUCUUCUACAUUA: 0.521 ratio
UCCCUGUAACCCCUUAAAUAGAACUUUCUUAAAAUUGUGUCCCCACCACUUCUAAAAAUUUAGCAAUAUUAGAAGACAACACUAAGAAAUUGUGCUCAUUGUUUUGCAAAUGAAAUAGUU: 1.07 ratio
CGGCGCCAUCUGCCGAGCGCAGUGCUCCGCGCCAGUGCCCUUCGUCCCUUCACACUGAACCUAGCUAUAGGAAUUUCAUAUUUUUAAAAGUUUUACAUUGCUGUAUAUUCAAAGAUUUGU: 0.357 ratio
AGAUCUACUUCAUGCCUUGGACUCCUUACAGAACAGACACUCUAAUUGAGUAUUCCUCCCUGGAUGAUUUCCAGAAUUCUCGACAAACGAUCACCUAUAAACUACCACACCGUGUGGAUG: 0.467 ratio
CUCUAGUUCUUAAAAACCAACAUUCCUAAAAGAGUUAGAAAAAAAGUUUACAACGUAAUCUAGUUUACGAAGAAGUCUUGUGCUAGAAUACUUUUUUAAAAGUAUUUUGAAUACCAUUAA: 0.358 ratio
GAUAAUUGGAUCCUUGUAAUACUGUCCACUUCUACAUCUUGUUCUUCACCUUUCUAUUGCACAUGUCUCUAUUGCACAUAUUAUGUAAACAUAAAGUGAAUAAAGUUGUGUGUUUAAAAU: 0.284 ratio
CAUUGUACCCUGCUGUAUAAUAAACAAUCUUAGACAUUUAUCAGCUGUUGAUACAAAUGUUAGUCCCUAAUCACUUUUUAUAUGUUUUAAAUUUUUGAAAUUCAAGUGUACCUGCCAUAA: 1.97 ratio
GGUUAAUGUGUUAUUUAUUGAGUAUAGUUUGUGCUAAGCAUUGUGUUCGAUUUAAAAAAUUAGUGGAUUGACUCCACUUUGUUGUGUUGUUUUCAUUGUUGAAAAUAAAUAUAACUUUGU: 0.335 ratio

Repeated from above (set 1):
CGAAACCG: 0.16
CGCACGAC: 0.132
AACAAATA: -0.022
